Results gathered from unrelated publications.
Protocols differ between the studies behind these lines. ± marks the error that the study gave.

C=C[C@@](C)(/C=C/c1ccc(O)cc1)CCC=C(C)C — accuracy (post-procedure stability; rat plasma; 1000 ng/mL, 1 h, room temperature): 87.7%
Cc1c(-c2ccc(N3CCc4cccc(C(=O)Nc5nc6ccccc6s5)c4C3)nc2C(=O)O)cnn1CC12CC3(C)CC(C)(C1)CC(OCCNCC[C@H](O)CO)(C3)C2 — systemic vascular resistance change (anaesthetised male beagle dogs; intravenous infusion, 0.3 mg/kg/min, 105 min; reference: vehicle): -8%
CCOC(=O)c1c(NC(=O)CNC(C)C)sc2c1CCCCC2 — brain AUC(0-0.5 h) (mouse, brain; intraperitoneal, 100 mg/kg): 3950 ng·h/g
NCCONC(=O)[C@@H]1CC[C@@H]2CN1C(=O)N2OS(=O)(=O)O — amount excreted in urine (0-8 h) (human male, urine; intravenous infusion, 1 g multiple doses, day 9): 864 mg
COc1ccc([C@@H](O)c2cc(-c3ncnc4cc(N5CCOCC5)ccc34)c(F)cc2Cl)nn1 — drug-related lymphocyte count decrease (locally advanced rectal cancer patients; 150 mg, added: capecitabine and radiotherapy): 17%
CN(C)C(=N)N=C(N)N — subjects with adverse event (item: arthropod bite; healthy men; oral, dose not given, 8 days, treatment-emergent, crossover trial): 4.5%
C=CCn1ccc(=O)c(O)c1C — partition coefficient (shake-flask, item: iron(III) complex; 1-octanol/Tris buffer; pH 7.4, ligand:iron 10:1): 0.3 ± 0.05
CCO[C@H]1CCN(Cc2c(OC)cc(C)c3[nH]ccc23)[C@H](c2ccc(C(=O)O)cc2)C1 — unbound half-life (human mild hepatic impairment, plasma; oral, 200 mg single dose, geometric mean): 14.5 h
CCC(C)n1ncn(-c2ccc(N3CCN(c4ccc(OCC5COC(Cn6cncn6)(c6ccc(Cl)cc6Cl)O5)cc4)CC3)cc2)c1=O (centres unmarked) — trough plasma concentration (human, plasma; oral, dose not given, day 17 predose, geometric mean): 171 ng/mL
CC(C)(Sc1ccncc1-c1ccc(C#N)c2ccccc12)C(=O)O — amount excreted in urine (0-24 h) (human, urine; oral, 5 mg, added: febuxostat 10 mg): 60.6 µg
CCc1cc(C(=O)NC)c2nccc(N3CCc4c(cc(Cn5ccnc5)cc4-c4cn(C)nc4C(F)(F)F)C3=O)c2c1 — blood UREA change (Sprague Dawley rats; oral, 100 mg/kg twice daily, 7 days; reference: vehicle): 17.5%
C[C@@H](Nc1cc(F)cc(F)c1)c1cc(C(=O)N(C)C)cc2c(=O)cc(N3CCOCC3)oc12 — related serious adverse events (item: Hypersensitivity; advanced solid tumour patients; oral, dose not given, dose finding): 1.6%
N#Cc1cc(NC(=O)[C@H]2c3ccccc3C(=O)N(CC(F)(F)F)[C@@H]2c2cccnc2)ccc1F — AUC (human, plasma; oral, 300 mg, median): 10.2 µg·h/mL
CCOc1c([C@H](C)n2nc(C)c3c(N)ncnc32)cc(Cl)c(F)c1[C@@H]1CNC(=O)C1 — Cmax geometric mean (patients, monotherapy; oral, 45 mg once daily, cycle 1 day 1): 3850 nM
CC(C)NCCCC[C@@H]1NC(=O)[C@H](Cc2ccc(O)cc2)NC(=O)[C@H](Cc2ccccc2)NC(=O)CC[C@H](C(=O)N[C@@H](CCCCNC(C)C)C(=O)N[C@@H](CCCCNC(=O)[C@H](CCC(=O)O)NC(=O)[C@H](CCC(=O)O)NC(=O)[C@H](CCC(=O)O)NC(=O)CN2CCN(CC(=O)O)CCN(CC(=O)O)CCN(CC(=O)O)CC2)C(N)=O)NC(=O)CNC(=O)[C@H](Cc2ccc3ccccc3c2)NC(=O)[C@@H](CCCNC(=N)N)NC1=O [gallium-68 labelled] — tissue uptake (mouse with PC-3 xenograft, stomach; intravenous, 1 h): 0.1 %ID/g
O=C(Nc1nc2cccc(-c3ccc(CN4CCS(=O)(=O)CC4)cc3)n2n1)C1CC1 — patients with adverse event (item: abdominal discomfort; rheumatoid arthritis patients; oral, 30 mg once daily, 4 weeks, any relatedness): 0%
COc1cccc(OC)c1-c1cc(C(=O)NC2(C(=O)O)C3CC4CC(C3)CC2C4)nn1-c1ccc(C(=O)N(C)CCCN(C)CCCN(C)C(=O)CN2CCN(CC(=O)[O-])CCN(CC(=O)[O-])CCN(CC(=O)[O-])CC2)cc1C(C)C.[177Lu+3] (centres unmarked) — tumour-to-heart ratio (mouse, HT-29 xenograft; 168 h post injection, biodistribution; reference: tumour over heart uptake): 19.2
OCC1=C[C@@H](O)[C@@H]2C=CO[C@@H](O[C@@H]3O[C@H](CO)[C@@H](O)[C@H](O)[C@H]3O)[C@H]12 — accuracy (rat plasma; 1000 ng/mL, 2 weeks, -70 °C, post-preparative stability): 85.2%
CO[C@]1(C(=O)N[C@@H](C)c2ccc(-n3cc(F)cn3)nc2)CC[C@H](c2nc(C)cc(Nc3cc(C)[nH]n3)n2)CC1 — radioactivity excreted in feces (human, feces; oral, dose not given, 48 h; reference: dose): 29.1%
c1ccc2c(c1)c1cccc3ccc4cccc2c4c31 — literature range factor (PDMS-water partitioning; PAH compilation; reference: maximum over minimum K): 7
CCO[C@H]1CCN(Cc2c(OC)cc(C)c3[nH]ccc23)[C@H](c2ccc(C(=O)O)cc2)C1 — incidence alkaline phosphatase increase (PNH patients, active haemolysis; oral, 100 mg, treatment): 0%
COc1ccc2c(c1)CN(C(=O)CCN1CCC(Cc3ccccc3)CC1)CC[S@@+]2[O-] — diastolic blood pressure (telemetry; conscious dog; intravenous, 4 mg/kg, 2 h): 74 ± 6 mmHg
NC(=O)c1cc(Oc2ccc(NC(=O)Nc3ccc(Cl)c(C(F)(F)F)c3)c(F)c2)cc[n+]1[O-] — accuracy (short-term stability; mouse plasma; 25 ng/mL, 8 h, room temperature): 106%
CCc1c(-c2ccccc2)c(-c2ccccc2)nn1-c1ccccc1-c1cccc(OCC(=O)O)c1 — concentration (female Sprague-Dawley rat, uterus; oral, 10 mg/kg, 4 h): 1830 ng/g
NC1(C(=O)N[C@@H](CCO)c2ccc(Cl)cc2)CCN(c2nc[nH]c3nccc2-3)CC1 — incidence of lower abdominal pain (metastatic CRPC patients; 320 mg b.i.d., any grade, treatment-related, added: enzalutamide 160 mg daily): 0%
O=C(O)CN1CCCN2CCN(CC(=O)O)CCCN(CC1)Cc1cccc(n1)C2 — copper(II) complex dissociation half-life (5 M HCl; 90 °C): 2.7 h
COC(=O)C1=CO[C@@H](O[C@@H]2O[C@H](CO)[C@@H](O)[C@H](O)[C@H]2O)[C@@H]2C(CO)=CC[C@H]12 — accuracy (post-procedure stability; rat plasma; 200 ng/mL, 3 h, room temperature): 117%
N#Cc1ccc2c(c1)[C@H]1CCCN(C(=O)c3ccc4[nH]cnc4c3)[C@H]1C2 — total testosterone level (human males; 10 mg, end of trial): 13.6 nmol/L
Cc1nc2cccc(OCC(C)(C)C(=O)NC(C)C)c2c(N)c1C(=O)O — micronucleated polychromatic erythrocytes (male Swiss albino CD-1 mouse, bone marrow; oral, 500 mg/kg, 48 h): 0.06%
COc1cc(C(=O)NC2CCN(C)CC2)c(F)cc1Nc1ncc(C(F)(F)F)c(Oc2cccc3c2C(=O)N(C)C3)n1 — renal clearance (0-24 h) (human patients, urine and plasma; oral, 100 mg single dose, geometric mean): 13.4 mL/min
O=c1c2ccccc2oc2ccccc12 — solubility (tricaprin-tricaprylin mixture; 45 °C, tricaprin fraction 0.17): 0.0516 mole fraction
Cc1coc([C@H]2C[C@H]3[C@@H](CF)SC(N)=N[C@@]3(c3ccc(F)cc3F)CO2)n1 — brain concentration (male 129/SVE mouse, brain; subcutaneous, 80 mg/kg, 5 h): 618 nM
O=C(Nc1cnccc1Cl)N1CCN(Cc2ccc3c(c2)OC(F)(F)O3)CC1 — abdominal pain incidence (multiple ascending dose; young men; 25 mg, treatment-emergent adverse events): 0%
C=CC(=O)NC1CCN(c2ncc3ncnc(Nc4ccc(Oc5ccc6c(c5)ncn6C)c(C)c4)c3n2)CC1 — blood-to-plasma ratio (item: total radioactivity; healthy male human, whole blood and plasma; oral, 60 mg, 48 h, geometric mean): 1.54
C[Si](C)(C)O[Si](C)(C)O[Si](C)(C)O[Si](C)(C)C — octanol-water partition coefficient (octanol/water): 1.38e+08
O=C(c1nc2n(n1)[C@H](c1ccccc1)C[C@@H]2F)C1CC1 — renal clearance (human; 225 mg single dose): 0.043 to 0.357 mL/min
COc1nnc2ccc(N3CCC(c4ccc(OCCN5CCN(C)C(=O)[C@H]5C)cc4)CC3)nn12 — AUC(0-t) (patients, plasma; oral, 40 mg once daily, multiple dose, monotherapy): 0.618 µM·h
FC(F)(F)c1ccc(CNc2ccc(Cc3c[nH]c4ncc(Cl)cc34)cn2)cn1 — cognitive disorder incidence (patients with advanced solid tumours; oral, 1000 mg/day, TGCT cohort, grade ≥3): 0%
Cc1nc(-c2ccc(OCC(C)C)c(C#N)c2)sc1C(=O)O — abdominal pain incidence (healthy Chinese subjects; oral, 40 mg): 2.6%
C[C@@H](c1ncncc1F)[C@](O)(Cn1cncn1)c1ccc(F)cc1F — drug-related TEAE incidence (item: blurred vision; human; oral, 200 mg): 0%
Cn1cc(-c2ccc(-c3cncc(Cl)c3N3CCC4(CCNC4=O)CC3)cc2)cn1 — log2 fold change (COLO 205; gene expression, microarray, item: DHRS12 mRNA; concentration not given, 2 h; reference: untreated cells): 3.02
CC(F)(F)c1nc2nc(CO)cc(Nc3ccc(S(F)(F)(F)(F)F)cc3)n2n1 — AUC(0-inf), metabolite (LC-MS/MS; malaria patients, plasma; oral, 250 mg of parent drug): 254 µg·h/mL
CC(C)C[C@H](NC(=O)C[C@H](O)[C@H](CC(C)C)NC(=O)[C@H](Cc1c[nH]cn1)NC(=O)CNC(=O)[C@@H](NC(=O)[C@H](C)NC(=O)[C@H](Cc1c[nH]c2ccccc12)NC(=O)[C@H](CCC(N)=O)NC(=O)[C@@H](Cc1ccccc1)NC(=O)COCCOCCNC(=O)CCC(C(=O)O)N1CCN(CC(=O)O)CCN(CC(=O)O)CCN(CC(=O)O)CC1)C(C)C)C(N)=O (some centres unmarked) [lutetium-177 labelled] — tissue uptake (female BALB/c nu/nu mice, skin; intravenous, 100 pmol, 4 h, added: PA 300 µg): 0.15 ± 0.06 %ID/g
O=C(c1cccnc1-c1ccncc1)N1CCC(O)(Cc2ccccc2)CC1 — Cmax/dose (healthy Japanese adults, plasma; oral, 1200 mg single dose): 8.46 ng/mL/mg
CN[C@@H]1COc2c(S(=O)(=O)NC(=O)Nc3c4c(cc5c3CCC5)CCC4)cnn2C1 — amount excreted in urine (human, urine; oral, 300 mg twice daily, 0-12 h, day 7): 44.5 mg
CNC(=O)c1ccc(-c2cnc3ncc(Cc4ccc5ncccc5c4)n3n2)cc1F — patients with adverse event (item: Ascites; cancer patients; oral, 600 mg twice daily, all expansion cohorts, grade 3-4): 5%
Cc1noc(C)c1-c1cc(C(O)(c2ccccn2)c2ccccn2)c2nc(C3CC3)[nH]c2c1 — Ctau (human patients, plasma; oral, 2 mg, cycle 1 day 8, monotherapy): 34.4 ng/mL
O=C(N/N=C/c1ccccc1O)c1ccncc1 — stability (rat plasma; 23 µM, 7 days, -80 °C, long-term storage): 96.9%
Cc1cc(-c2nccc3c2ccn3CC(=O)Nc2ccc(-c3cnccn3)cn2)ccn1 — device site dermatitis incidence (healthy human volunteers; oral, 20 mg single dose, single ascending dose): 16.7%
CC(C)(C(=O)N1CCOc2c(C#N)cncc2C1)C(F)F — subjects with investigations TEAE (human, both sexes; oral, 10 mg single dose): 0%
CCN1/C(=C/C(C)=O)Sc2ccc(F)cc21 — QRS duration (cynomolgus monkey; oral, 30 mg/kg, 2 h post-dose): 35 ± 2 ms
Cl.[2H]C([2H])([2H])CC(=O)c1cnc(NC(=O)C2CC2)cc1Nc1cccc(-c2ncn(C([2H])([2H])[2H])n2)c1OC — Vz/F (geometric mean; human; oral, 20 mg twice daily, day 7, fed, liquid, multiple dose): 142 L
c1ccc2cc3c(ccc4ccccc43)cc2c1 — literature range of log K (PDMS-water partitioning; PAH compilation): 4.59 to 5.66 log units
CNCCOC12CC3(C)CC(C)(CC(Cn4ncc(-c5ccc(N6CCc7cccc(C(=O)Nc8nc9ccccc9s8)c7C6)nc5C(=O)O)c4C)(C3)C1)C2 — plasma concentration (anaesthetised male beagle dogs; intravenous bolus, 0.03 mg/kg, 5 min): 93 ± 21 ng/mL
O=C(O)CCC(=O)O.[2H]C([2H])([2H])Oc1cc(C)c2[nH]ccc2c1CN1CC[C@@H](C2CC2)C[C@H]1c1ccc(C(=O)O)cc1 — TEAE urine bacteria positive (healthy Chinese subjects; 200 mg, single ascending dose): 0%
Cc1cc(NC2CCN(C(=O)OC3CCN(C(=O)/C=C/CN(C)C)C3)CC2)n2ncc(C(C)C)c2n1 (centres unmarked) — patients with adverse event (Phase I dose escalation CTCAE v4.0, item: blood creatinine increased; patients with advanced solid tumours; dose not given, Total dosing grade 3 or higher): 0%

For quick reference, copied from above:
N#Cc1ccc2c(c1)[C@H]1CCCN(C(=O)c3ccc4[nH]cnc4c3)[C@H]1C2 — total testosterone level (human males; 10 mg, end of trial): 13.6 nmol/L
Cc1nc2cccc(OCC(C)(C)C(=O)NC(C)C)c2c(N)c1C(=O)O — micronucleated polychromatic erythrocytes (male Swiss albino CD-1 mouse, bone marrow; oral, 500 mg/kg, 48 h): 0.06%
COc1cc(C(=O)NC2CCN(C)CC2)c(F)cc1Nc1ncc(C(F)(F)F)c(Oc2cccc3c2C(=O)N(C)C3)n1 — renal clearance (0-24 h) (human patients, urine and plasma; oral, 100 mg single dose, geometric mean): 13.4 mL/min
O=c1c2ccccc2oc2ccccc12 — solubility (tricaprin-tricaprylin mixture; 45 °C, tricaprin fraction 0.17): 0.0516 mole fraction
